Assay results from different studies.
Numbered parts are unrelated; each lists some results of a single study.

Block 1
Target: RNA binding protein fox-1 homolog 2, RRM domain, GST-SBP tag (RBFOX2, Homo sapiens, UniProt O43251-10, residues 100-194)
Technique: RNA Bind-n-Seq
Molecule type: RNA
Matrix: in vitro
Tested at: 365 nM
Setting: natural RNA segment, single round, ends assumed
Reference: no-protein control
Direction: higher = stronger binding
Shared flanks, not repeated: GGGAGUUCUACAGUCCGACGAUC … UGGAAUUCUCGGGUGCCAA
Target sequence (chain): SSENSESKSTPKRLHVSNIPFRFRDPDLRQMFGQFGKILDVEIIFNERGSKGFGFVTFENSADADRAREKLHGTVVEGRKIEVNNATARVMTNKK
Sequence | RBNS enrichment (R)
CGCCCAGCCACAUGUGUCUGCCUGACCCGUACACACCAGGGGUUCCGGGGUUGGGAGCUGAACCAUCCCCACCUCAGGGUUAUAUUUCCCUCUCCCCUUCCCUCCCCGCC | 0.813
AAGUGUGGGCUUUUGUUUCUUACAUUCCUCUGCAAUGGCCUGGCUGGCCUGGUGACCUCUAGGACCAAAGUCUUCCUGGAGCUGACCUCUAUGGUGUGGAGUGGUGGCAG | 0.367
GAGUUUACAAAGAAUAAGUAGAUUAUUGCCCAGUUAUUAACUAUUUUAAAUAAGAAAAUAAUCUACACAGUCAAGAUACCUAGCAAAUAAGUGGUGCCAUUGGAAUGUCA | 0.906
GCCAAUGAAAUGUAAUCCAACUUUUGAUUCUUCAUAUAUAUUUUUAACCACUUUAUGGGCUUUUUGUUUUGCUUUGGCCCUUUGCUGCCAUUAUUACACACAGGAGAGCC | 0.798
CCAAGUGCCUGAUACUCCCUUACACUGAAUCAUGUUAUGAUUUAUAGAAAUACCUUUCCUGUAGCUUUUAUAGUCAUUGUUUUUCAAAGACGAUAUACCAGCCCUCACCC | 0.604
UGUUGAGCCCAUUCAGUAGCCGAGUCUUGUCACUCUGUGCCAGCCUCAGUCCUGUGUCCCUUUUUCUCUUGGGUUGAGCCUGUGGCUCAUCCCCUUUGUCCUUUUGGGAA | 0.198
UGCCCUCUACCACUAUAUGCCAAAAAUUGCUUCUCUAGUGCCAUUUUGAUAUUAUAUCUAGCUAUAAAUAAUACAUGACUAUCGUUUUCUAUUGAAUGUCAAAGACUUAC | 0.576
UGACCAUGUAAAAGAUCUGUUACCCCUAGAGUGUUGAGCCUGCUGAUUUCAUUUAGGACAAAUGUGCAUGUUCUGAAUGAAAUGAGAGAAAUGCUGUAUUUAUUGAUAAC | 1.09

Block 2
Target: Centromere-binding protein 1, full length, N-terminal tag (CBF1, Saccharomyces cerevisiae, UniProt P17106, residues 1-351)
UniProt P17106, sequence (whole entry, looked up): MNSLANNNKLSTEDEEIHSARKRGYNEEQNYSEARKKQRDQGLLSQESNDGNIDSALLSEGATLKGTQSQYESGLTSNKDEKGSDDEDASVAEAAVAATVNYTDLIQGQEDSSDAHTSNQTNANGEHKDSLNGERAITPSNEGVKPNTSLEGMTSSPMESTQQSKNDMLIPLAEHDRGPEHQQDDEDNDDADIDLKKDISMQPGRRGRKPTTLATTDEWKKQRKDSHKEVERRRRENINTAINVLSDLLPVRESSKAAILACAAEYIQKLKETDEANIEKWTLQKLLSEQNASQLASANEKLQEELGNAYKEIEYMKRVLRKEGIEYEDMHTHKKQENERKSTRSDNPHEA
Technique: protein-binding microarray
Molecule type: double-stranded DNA, one strand shown
Matrix: in vitro
Tested at: 0.8 µM
Setting: whole 60-bp probe, no competitor
Direction: higher = stronger binding
Shared flanks, not repeated: … GTCTTGATTCGCTTGACGCTGCTG
Sequence | fluorescence intensity
CTAAGGTGGTGTTTCCTCGTGTCCGTATCAAGCTTC | 594 a.u.
GAATGGTAAAAAAGTATGACCACGTTAACTTTCTAG | 627 a.u.
GAAGGAAATCGTGGTTCCGTCATGCCCATACTATAG | 548 a.u.
CCTAACTACTATAATCATGCCTTATAGCTTCGTACA | 541 a.u.
CCTAACTACTATATAATCATGACATAGCTTCGTACA | 580 a.u.
CTAGTGTCATCCGCGGGTGAGGTAAACGCTGGCTTC | 464 a.u.

Block 3
Target: Myc proto-oncogene protein, bHLH-zipper, MAX partner unstated (MYC, Homo sapiens, UniProt P01106, residues 368-449)
UniProt P01106, sequence (368-449, looked up): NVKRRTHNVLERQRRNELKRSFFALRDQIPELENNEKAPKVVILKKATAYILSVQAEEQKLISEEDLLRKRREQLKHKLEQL
Technique: protein-binding microarray
Molecule type: double-stranded DNA, one strand shown
Matrix: in vitro
Tested at: not given
Setting: k-mer, scored over probes, only values ≥0.25
Direction: higher = stronger binding
Sequence | E-score
GCATGGCC | 0.46
CGCCTCGC | 0.251
GCCACCAC | 0.287
GTGCCGCA | 0.302
CCTCGTGC | 0.47

Other studies, line by line
Substance | target | assay | test system | setting | how to read | measurement | value
PhoQ, residues 284 288 289 292 302 303 SSYNSA | PhoP, residues 12 14 15 18 19 NYFRM (Escherichia coli, UniProt P23836) | Sort-seq, refers to: YFP reporter | E. coli | PhoQ-PhoP variant library, with: 10 µM Mg2+ | reference: high Mg2+ state, higher = stronger signaling | fold induction | 5.67
